# Assay results pooled from the literature.
# Each numbered part is a random draw from the data of one study; scales do not carry over between parts. “And” joins repeats or separate records; there may be more than shown.
# Chain of UniProt Q12866 (whole entry, looked up): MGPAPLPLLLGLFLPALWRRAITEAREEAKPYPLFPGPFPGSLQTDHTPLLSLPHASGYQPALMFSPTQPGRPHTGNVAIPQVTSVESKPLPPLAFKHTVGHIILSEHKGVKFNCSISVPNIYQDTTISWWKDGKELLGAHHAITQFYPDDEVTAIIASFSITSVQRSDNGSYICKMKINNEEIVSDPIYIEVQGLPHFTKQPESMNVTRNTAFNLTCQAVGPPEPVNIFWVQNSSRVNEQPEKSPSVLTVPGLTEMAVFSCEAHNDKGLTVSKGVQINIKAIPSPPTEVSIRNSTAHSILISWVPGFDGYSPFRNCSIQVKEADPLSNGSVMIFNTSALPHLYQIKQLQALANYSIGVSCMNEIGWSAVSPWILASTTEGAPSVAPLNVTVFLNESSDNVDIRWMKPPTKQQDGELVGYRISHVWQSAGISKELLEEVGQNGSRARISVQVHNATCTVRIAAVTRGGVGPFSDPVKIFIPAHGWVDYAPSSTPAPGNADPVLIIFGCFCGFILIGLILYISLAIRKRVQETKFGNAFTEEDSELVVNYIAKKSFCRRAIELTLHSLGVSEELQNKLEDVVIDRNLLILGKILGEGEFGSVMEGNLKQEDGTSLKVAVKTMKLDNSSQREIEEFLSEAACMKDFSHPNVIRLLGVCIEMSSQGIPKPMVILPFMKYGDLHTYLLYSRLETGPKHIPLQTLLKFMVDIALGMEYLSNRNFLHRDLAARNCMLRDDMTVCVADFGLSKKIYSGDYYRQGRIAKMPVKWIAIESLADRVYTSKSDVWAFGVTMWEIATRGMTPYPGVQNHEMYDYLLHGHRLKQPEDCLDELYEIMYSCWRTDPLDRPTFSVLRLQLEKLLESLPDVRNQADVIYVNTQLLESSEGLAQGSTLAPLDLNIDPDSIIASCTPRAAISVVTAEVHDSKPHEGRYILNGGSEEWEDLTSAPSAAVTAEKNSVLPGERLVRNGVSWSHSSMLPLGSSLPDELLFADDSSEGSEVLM
# Chain of UniProt Q9HCP0 (whole entry, looked up): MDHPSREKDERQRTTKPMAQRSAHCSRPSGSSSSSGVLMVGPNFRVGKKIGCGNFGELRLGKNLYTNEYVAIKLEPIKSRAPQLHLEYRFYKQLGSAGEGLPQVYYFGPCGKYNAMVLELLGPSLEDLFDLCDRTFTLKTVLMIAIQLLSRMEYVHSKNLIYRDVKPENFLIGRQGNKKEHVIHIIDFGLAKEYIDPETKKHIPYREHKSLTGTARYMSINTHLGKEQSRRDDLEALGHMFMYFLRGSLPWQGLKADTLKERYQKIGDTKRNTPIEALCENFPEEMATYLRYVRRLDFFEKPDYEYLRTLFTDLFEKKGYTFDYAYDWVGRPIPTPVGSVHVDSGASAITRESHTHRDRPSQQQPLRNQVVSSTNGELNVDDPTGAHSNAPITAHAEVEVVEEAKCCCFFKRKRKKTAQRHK
# Chain of UniProt P49840 (whole entry, looked up): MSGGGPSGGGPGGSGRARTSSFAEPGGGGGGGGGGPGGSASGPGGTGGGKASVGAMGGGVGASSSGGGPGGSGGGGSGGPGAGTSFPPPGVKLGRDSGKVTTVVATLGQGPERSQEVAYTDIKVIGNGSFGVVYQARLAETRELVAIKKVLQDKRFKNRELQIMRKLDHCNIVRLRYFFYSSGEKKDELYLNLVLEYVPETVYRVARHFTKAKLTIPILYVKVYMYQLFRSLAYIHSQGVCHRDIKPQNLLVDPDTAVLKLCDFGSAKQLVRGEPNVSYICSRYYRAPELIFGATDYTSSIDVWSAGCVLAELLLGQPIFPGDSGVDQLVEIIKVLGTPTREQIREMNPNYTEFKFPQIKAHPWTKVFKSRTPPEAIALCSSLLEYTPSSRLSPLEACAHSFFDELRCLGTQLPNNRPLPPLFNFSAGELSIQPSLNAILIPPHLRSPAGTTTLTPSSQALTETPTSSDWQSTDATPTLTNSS

# Set 1
# Structure (SMILES): NS(=O)(=O)c1cc(NC(=O)C2(c3ccccc3Cl)CC2)ccc1Oc1cccc(Cl)c1
# Read-out: cell-free assay
# Technique: competition with immobilised ligand
# Concentration: 1 µM
target,remaining binding
"GSK3A (Homo sapiens, UniProt P49840)",90%
"MAPK3 (Homo sapiens, UniProt P27361)",76%
"CSNK1G1 (Homo sapiens, UniProt Q9HCP0)",90%
"MERTK (Homo sapiens, UniProt Q12866)",70%

# Set 2
# Target: DNA polymerase theta, helicase domain (POLQ, Homo sapiens, UniProt O75417)
# Chain of UniProt O75417 (whole entry, looked up): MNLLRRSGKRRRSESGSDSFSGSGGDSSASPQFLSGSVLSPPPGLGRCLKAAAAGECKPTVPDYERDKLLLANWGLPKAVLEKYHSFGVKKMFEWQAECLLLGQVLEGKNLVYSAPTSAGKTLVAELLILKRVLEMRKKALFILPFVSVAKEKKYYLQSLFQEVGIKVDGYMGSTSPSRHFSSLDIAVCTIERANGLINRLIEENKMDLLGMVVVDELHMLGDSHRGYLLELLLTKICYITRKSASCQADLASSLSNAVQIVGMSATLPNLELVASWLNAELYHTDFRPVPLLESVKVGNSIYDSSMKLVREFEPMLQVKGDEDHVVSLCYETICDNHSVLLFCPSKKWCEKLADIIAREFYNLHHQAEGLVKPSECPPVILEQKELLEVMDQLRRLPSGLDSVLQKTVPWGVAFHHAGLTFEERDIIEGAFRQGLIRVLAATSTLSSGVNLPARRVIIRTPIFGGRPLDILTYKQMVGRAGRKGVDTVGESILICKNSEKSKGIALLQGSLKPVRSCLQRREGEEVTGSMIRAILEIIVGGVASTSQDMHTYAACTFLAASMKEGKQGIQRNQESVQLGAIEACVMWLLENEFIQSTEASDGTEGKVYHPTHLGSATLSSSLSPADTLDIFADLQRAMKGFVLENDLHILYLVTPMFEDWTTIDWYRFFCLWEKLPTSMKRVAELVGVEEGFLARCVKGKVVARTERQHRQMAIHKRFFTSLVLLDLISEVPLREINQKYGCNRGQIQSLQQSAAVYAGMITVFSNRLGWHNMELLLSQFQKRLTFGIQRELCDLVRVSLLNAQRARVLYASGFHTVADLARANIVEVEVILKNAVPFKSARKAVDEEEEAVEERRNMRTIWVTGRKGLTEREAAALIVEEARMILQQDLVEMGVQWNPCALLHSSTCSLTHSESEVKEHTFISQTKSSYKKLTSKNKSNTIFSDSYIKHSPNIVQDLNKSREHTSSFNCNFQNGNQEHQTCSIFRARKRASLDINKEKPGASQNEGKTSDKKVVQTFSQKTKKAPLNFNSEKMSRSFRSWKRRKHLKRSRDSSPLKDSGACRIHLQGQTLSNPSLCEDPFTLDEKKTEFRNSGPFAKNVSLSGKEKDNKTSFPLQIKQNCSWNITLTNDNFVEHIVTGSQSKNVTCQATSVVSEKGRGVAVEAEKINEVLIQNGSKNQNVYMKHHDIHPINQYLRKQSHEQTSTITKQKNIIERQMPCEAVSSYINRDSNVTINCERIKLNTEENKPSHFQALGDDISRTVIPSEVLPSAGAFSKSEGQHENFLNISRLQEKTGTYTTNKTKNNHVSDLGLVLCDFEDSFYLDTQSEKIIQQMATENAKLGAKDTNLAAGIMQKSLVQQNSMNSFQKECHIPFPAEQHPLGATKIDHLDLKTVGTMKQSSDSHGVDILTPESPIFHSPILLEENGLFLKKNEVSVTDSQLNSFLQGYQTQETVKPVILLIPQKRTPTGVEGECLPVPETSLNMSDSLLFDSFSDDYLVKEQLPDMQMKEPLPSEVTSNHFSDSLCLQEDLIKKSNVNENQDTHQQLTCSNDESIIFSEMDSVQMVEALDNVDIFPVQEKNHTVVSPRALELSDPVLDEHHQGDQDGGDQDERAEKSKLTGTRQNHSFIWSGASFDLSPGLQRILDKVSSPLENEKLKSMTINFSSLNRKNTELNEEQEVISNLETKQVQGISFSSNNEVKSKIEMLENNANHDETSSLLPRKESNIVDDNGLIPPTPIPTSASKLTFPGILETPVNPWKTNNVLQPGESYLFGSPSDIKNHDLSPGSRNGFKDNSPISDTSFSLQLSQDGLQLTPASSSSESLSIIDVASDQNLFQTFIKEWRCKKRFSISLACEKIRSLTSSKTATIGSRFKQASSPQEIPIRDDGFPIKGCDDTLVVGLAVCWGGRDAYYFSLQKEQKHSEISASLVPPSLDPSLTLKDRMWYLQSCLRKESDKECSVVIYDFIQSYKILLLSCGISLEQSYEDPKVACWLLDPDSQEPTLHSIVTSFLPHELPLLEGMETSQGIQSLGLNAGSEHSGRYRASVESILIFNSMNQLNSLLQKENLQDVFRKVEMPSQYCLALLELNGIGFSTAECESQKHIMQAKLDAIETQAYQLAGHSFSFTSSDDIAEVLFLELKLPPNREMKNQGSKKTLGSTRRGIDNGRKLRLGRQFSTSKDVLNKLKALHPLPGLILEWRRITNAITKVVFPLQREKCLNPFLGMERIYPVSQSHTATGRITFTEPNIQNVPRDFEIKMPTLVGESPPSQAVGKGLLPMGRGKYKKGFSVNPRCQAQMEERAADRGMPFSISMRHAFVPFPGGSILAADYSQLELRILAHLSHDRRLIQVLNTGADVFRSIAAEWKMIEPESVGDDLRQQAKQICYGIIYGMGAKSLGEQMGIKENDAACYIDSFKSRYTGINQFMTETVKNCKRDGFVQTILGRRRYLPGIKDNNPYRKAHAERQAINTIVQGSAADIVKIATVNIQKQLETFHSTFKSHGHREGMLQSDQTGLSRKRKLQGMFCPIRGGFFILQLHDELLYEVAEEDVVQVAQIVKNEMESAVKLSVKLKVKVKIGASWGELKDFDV
# Mode: inhibitor
# Concentration: concentration not given
# Setting: average
# With: without ssDNA
SMILES,remaining activity [%]
CC1=Nc2cc(C(=O)NCCc3ccc(Cl)cc3)ccc2Sc2ccc(C)cc21,63.7
O=C(Nc1ccccc1F)c1ccc2c(Cl)c3c(nc2c1)CCC3,82.1
O=C(O)[C@]1(Cc2cccc(Nc3nccs3)n2)CC[C@@H](Oc2cccc(Cl)c2F)CC1,53.4
Cc1ccc(C2C=C(c3ccccc3)N=C3N=C(NS(C)(=O)=O)NN32)cc1 (stereo not drawn),89.8

# Set 3
# SMILES: C[C@@H]1[C@H](O)[C@@H](C)/C=C/C=C/C=C/C=C/C=C/C=C/C=C/[C@H](O[C@@H]2O[C@H](C)[C@@H](O)[C@H](N)[C@@H]2O)C[C@@H]2O[C@](O)(C[C@@H](O)C[C@@H](O)[C@H](O)CC[C@@H](O)C[C@@H](O)CC(=O)O[C@H]1C)C[C@H](O)[C@H]2C(=O)O
tested on,assay,test system,conditions,inhibition
THP-1,host cell growth,,0.4 µM,-0.96% and -0.42% and -2.06% and 0.81% and -2.2%
Leishmania donovani,"parasite growth, imaging",THP-1,"4 nM, intracellular, amastigote",0%
THP-1,host cell growth,,10 µM,102%

# Set 4
# Cell line: HuT78
# Concentration: 2 µM
# Time: 48 h
# Baseline: untreated
Structure (SMILES),viability [%]
Cc1c(F)cc(C(=O)NC2CC2)cc1-c1ccc(C(=O)NCC(C)(C)C)cn1,103
COc1ccc(COc2cc3oc(=O)c4cc(C(C)O)ccc4c3cc2OC)cc1 (stereo not drawn),92.5
COc1ncc(-c2ccc3nccc(-c4ccnnc4)c3c2)cc1NS(=O)(=O)c1ccc(F)cc1F,21.8
Cc1c[nH]c2nc(Nc3ccc(N4CCN(C)CC4)c(F)c3)nc(-c3cccc(CC#N)c3)c12,42.9
COc1cc(-c2cc(-c3ccc(N4CCNCC4)cc3)cnc2C)cc(OC)c1OC,97.8
O=C(NCc1ccccc1)c1csc(Nc2ccncn2)n1,134
Cc1[nH]c(/C=C2\C(=O)Nc3ccccc32)c(C)c1CCC(=O)O,143

# Set 5
# Target: Casein kinase II subunit alpha (CSNK2A1, Homo sapiens, UniProt P68400)
# Chain of UniProt P68400 (whole entry, looked up): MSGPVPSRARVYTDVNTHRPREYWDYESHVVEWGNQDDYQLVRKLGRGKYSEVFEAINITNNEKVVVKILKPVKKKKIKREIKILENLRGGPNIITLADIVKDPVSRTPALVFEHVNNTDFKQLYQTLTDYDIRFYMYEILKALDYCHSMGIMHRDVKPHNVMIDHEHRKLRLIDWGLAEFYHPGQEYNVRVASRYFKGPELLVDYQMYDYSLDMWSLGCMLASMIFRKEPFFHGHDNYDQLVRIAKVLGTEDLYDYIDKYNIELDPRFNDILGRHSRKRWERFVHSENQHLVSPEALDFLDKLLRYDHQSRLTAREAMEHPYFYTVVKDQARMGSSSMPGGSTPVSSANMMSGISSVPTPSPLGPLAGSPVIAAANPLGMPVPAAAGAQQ
# Read-out: enzyme activity
# Mode: inhibitor
# Concentration: 0.5 µM
# Baseline: control
SMILES,remaining activity [%]
COc1cc2ncnc(Nc3ccc(Oc4ccccc4)cc3)c2cc1OC,114
O=C1NC(=O)C(c2cn(CCCO)c3ncccc23)=C1c1cnccn1,78.9
Cn1c2ccccc2c2c3c(c4c5ccccc5n(CCC#N)c4c21)CNC3=O,73.1
Nc1ccc2ncnc(NCCc3ccc(Oc4ccccc4)cc3)c2c1,95.2
CC(C)[C@H](CO)Nc1nc(Nc2cc(N)cc(Cl)c2)c2ncn(C(C)C)c2n1,99.3
N#CC(C#N)=C(N)/C(C#N)=C/c1ccc(O)cc1,104
COc1ccc(CNC(=O)Nc2ncc([N+](=O)[O-])s2)cc1,94.2
Cn1sc(=O)n(Cc2ccccc2)c1=O,95.4
NCCNc1ncc(C(N)=O)c(Nc2cccc(C(F)(F)F)c2)n1,91.2
CCOC(=O)c1c(C)[nH]c(/C=C2\C(=O)Nc3ccccc32)c1C,114
Cc1nc(-c2ccccc2)c(-c2ccncc2)o1,109
Nc1ncnc2n[nH]c(Nc3ccc(F)cc3)c12,89.9
O=C(Nc1cccc(Nc2cc(Nc3cccc(C(F)(F)F)c3)ncn2)c1)C1CC1,92.6
COc1ccc(OC)c2c(=S)c3ccccc3[nH]c12,100
COc1ccc(C(=O)Nc2sc3c(c2C(N)=O)CCCC3)cc1OC,98.8

# Excerpt of the above (set 5):
SMILES,remaining activity [%]
COc1ccc(OC)c2c(=S)c3ccccc3[nH]c12,100
NCCNc1ncc(C(N)=O)c(Nc2cccc(C(F)(F)F)c2)n1,91.2
